Published values gathered from unrelated publications.
Every numbered part comes from another study and shows a few of its results, in no order. Substitutions count along the parent as printed.

Set 1
Target: Histone acetyltransferase KAT6A, both winged helices, GST fusion (KAT6A, Homo sapiens, UniProt Q92794, residues 1-181)
Technique: protein binding microarray
Molecule type: double-stranded DNA, one strand shown
Matrix: in vitro
Tested at: not given
Setting: 8-mer, flanks averaged, mean of 2 arrays, mostly near background
Relative to: not given
Reading: higher = stronger binding
Construct (chain): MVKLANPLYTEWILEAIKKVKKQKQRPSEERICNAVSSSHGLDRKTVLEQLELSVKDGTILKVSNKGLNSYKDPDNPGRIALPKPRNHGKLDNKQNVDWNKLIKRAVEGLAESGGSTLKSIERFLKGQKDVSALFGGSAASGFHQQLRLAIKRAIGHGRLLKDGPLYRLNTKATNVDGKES
Oligonucleotide	E-score
CAGGGGCA	-0.223
CGATTAAG	-0.0728
CCGTCTCG	0.193
CCGGCGTC	0.278
GCGAACAA	0.128
TCAGTACA	-0.173
CGGTAAAG	0.235
GCTTCTAA	-0.166
ATGATATA	-0.0567
GTGTACTA	-0.00112
CGGCATAG	0.203
ACAGCAGG	-0.0911
ATGTCAGG	-0.182
AATGTCTA	-0.0774
ATAATGCG	0.111
CCAGCTGA	-0.141
GAAGTACC	0.122
CAGGCCTC	0.0435
GAGAGTGC	-0.0258
GACCCAGA	-0.134
CGACGGTA	0.309
AGTAAGAA	-0.0449
ACGTGAGC	-0.02
CGTCGAGC	0.0823
CTGTGATC	-0.104

Set 2
Target: Interferon regulatory factor 5, full length, phosphomimetic (IRF5, Homo sapiens, UniProt Q13568-2, residues 1-514, S451D/S453D/S456D/S462D)
Technique: protein-binding microarray
Molecule type: double-stranded DNA, one strand shown
Matrix: in vitro
Tested at: 940 nM top
Setting: 60-bp whole probe
Together with: salmon DNA 0.4 mg/ml
Relative to: random background probes
Reading: higher = stronger binding
Constant ends, left off below: GCCTAGCAC … GTCTTGATTCGCTTGACGCTGCTG
Oligonucleotide	fitted relative affinity
TACGAACTGAGTTTCGAGACGTGCTAG	3.7 z-score
GACGGACTGGGGACTGCGGACGTGCTA	-0.373 z-score
TATGTTCACTATTTAAGAACGTGCTAG	0.0377 z-score
CCCTGTGTCCACAGCTGGATGTGCTAG	-0.322 z-score
GACGGACTGGGTACTGGGGACGTGCTA	-0.421 z-score
GACGATTTCGAGTTTCGAGACGTGCTA	2.93 z-score
TCATTGTTCTCTCTGGCACTGTGCTAG	0.533 z-score
ATGCTACTGCATTTTTTTTTGTGCTAG	-0.0252 z-score
GACGGTTTCCTTAGCCTGACGTGCTAG	0.86 z-score
TTAGGTATCGACTTTCGGTAAGTGCTA	6.14 z-score
TTAGGACTCGACACTGGGTTAGTGCTA	-0.527 z-score
TCATAGATGCCTTTCTCACTGTGCTAG	0.256 z-score
GGCGATATCGGGACTGGAGACGTGCTA	-0.336 z-score
TCAATTTTTAGTTAGAAACTGTGCTAG	-0.109 z-score
TTAGGGCTGGGGTTTCGGTTAGTGCTA	5.99 z-score
GCCGGTATCGGACTGGGGACGTGCTAG	3.08 z-score
ATTGCTTCCTCTTTCACTGGGTGCTAG	1.54 z-score

Set 3
Target: Prothrombin, mature alpha-thrombin (F2, Homo sapiens, UniProt P00734)
Technique: aptamer microarray, sandwich
Molecule type: DNA with 2'F-ANA
Matrix: in vitro
Tested at: 200 nM
Setting: whole 15-mer aptamer, many near background
Together with: Cy3 exosite-II aptamer, 400 nM
Reading: higher = stronger binding
Oligonucleotide: GGTTGGTGTGGTTGG
Modification	mean fluorescence intensity [a.u.]
2'F-ANA at 2 5 8 10 11 12 13 15	47.6
2'F-ANA at 3 5 7 8 9 10 12 13 15	66
2'F-ANA at 2 4 6 11 13	170
2'F-ANA at 3 7 9 10 12	690
2'F-ANA at 3 4 7 10 11 12 15	376
2'F-ANA at 1 4 5 6 7 9 10 11 12 14	48.3
2'F-ANA at 1 3 4 7 8 11 12 14 15	101
2'F-ANA at 3 6 8 13 14	544
2'F-ANA at 1 3 6 7 8 9 12	506
2'F-ANA at 1 3 4 6 8 9 10 11 12 14 15	89.5
2'F-ANA at 1 3 4 5 6 7 8 13	53
2'F-ANA at 2 3 4 6 8 9 10 12 13 15	207
2'F-ANA at 1 3 5 6 9 15	60.6
2'F-ANA at 2 6 8 9 10 11 12 14 15	101
2'F-ANA at 5 6 7 8 9 14 15	46.7
2'F-ANA at 1 2 6 7 10 11 12	63.5
2'F-ANA at 1 2 3 5 6 9 15	61
2'F-ANA at 3 7 10 11	629

Set 4
Target: RNA binding protein fox-1 homolog 2, RRM domain, GST-SBP tag (RBFOX2, Homo sapiens, UniProt O43251-10, residues 100-194)
Technique: RNA Bind-n-Seq
Molecule type: RNA
Matrix: in vitro
Tested at: 365 nM
Setting: natural RNA segment, single round, ends assumed
Relative to: no-protein control
Reading: higher = stronger binding
Target sequence (chain): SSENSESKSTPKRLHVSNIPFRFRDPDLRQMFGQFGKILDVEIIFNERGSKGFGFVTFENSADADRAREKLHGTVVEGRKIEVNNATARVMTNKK
Oligonucleotide	RBNS enrichment (R)
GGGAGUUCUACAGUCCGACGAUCCAUUUUUUAAUUGAGCAAAUGUCUAUUGAACACUUAAAAUUAAUUAGAAUGUGGUAAUGGACAUAUUACUGAGCCUCUCCAUUUGGAACCCAGUGGAGUUGGGAUUUCUAUGGAAUUCUCGGGUGCCAA	0.32
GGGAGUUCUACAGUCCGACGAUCGUGGCUCAUGAAAUCACAGAGCUCAGAGAUACCAUCUUGAGAAAUCCUCCUUGGUAUCAUGAAACUGGAGCAGAGGAAUUGCAAUUUAGCAGGAGGUCCUCUACUGGUGAUGGAAUUCUCGGGUGCCAA	0.252
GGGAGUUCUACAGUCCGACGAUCCAUUCUAUCUGGGUGAACACCUUCAUUCUGGUAGAGCACCUAACACUUUAACAGCUGUUCCCGAAAGGGUUAGGACCAACUGCAAGUUAAUGUGGGUUGUAAAUGUUCCCUGGAAUUCUCGGGUGCCAA	0.266
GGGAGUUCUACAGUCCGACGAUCACGGUGACGCCUGCGGGACCAUCUGGGGCACCUGCUUCCACCCGUCUCUCUGCCCACUCGGGUCUGCAGACCUGGUUCCCACUGAGGCCCUUUGCAGGAUGGAACUACGGUGGAAUUCUCGGGUGCCAA	0.417
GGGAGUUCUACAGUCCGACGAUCCUUAACCCGUUUCUCUGGAUUUUAUGCUUCUGUGGCAUGUGGACCAUGAACCAUGUCCAAAGAACCAGGGGUGGGAAACACUCUCCCAGAGGGCUCCCUCCUAUAACUCCUGGAAUUCUCGGGUGCCAA	0.616
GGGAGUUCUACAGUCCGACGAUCAUUUAAUAAAACCUUCAAGAGAGAGUAAUGGACGGAGUGCAUUCUCCUUGAAAACUGUUCAGAGUUUACGUCUCGUUUGGGUUCAGUUUACAUAAGUGUGUGGGUGUCUUUGGAAUUCUCGGGUGCCAA	0.658
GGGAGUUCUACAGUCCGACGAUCGAUCCAAUUGCCCCAGUCUCCCUGCAUUUGCUAUUAAGUGAAUAUGCUGAACUGUCAUAAAAUUUUUUCAACCCUUUAUUGUGAUUUCCAAUGUCUUGAAGUUUUAAGUGUGGAAUUCUCGGGUGCCAA	0.948
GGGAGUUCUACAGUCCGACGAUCCUGAGAUCAGUACUCCUCUCUUAAGUAUUUAUUAUUAUUAUUAUUUACUUUACCUCAAGCAGACAGACAUAGGUUUUGAGGCUUGAAUACAUGGCAGUGGAAUACAAGGCUGGAAUUCUCGGGUGCCAA	0.526
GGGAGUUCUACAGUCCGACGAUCCCAUUUUAAGAAGAUUCCAUUUCGGAAGAAGAUGCCGAAAUUUACAAAUUUCGCCAUACUCAGUGGGACUCUCAAGUAGACUUUCAUAGUUGCAGUCACUUCAGGUCUCUUGGAAUUCUCGGGUGCCAA	0.308
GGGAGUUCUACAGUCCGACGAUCCACUAGAAUAAAUUUGCAAGGCCCUAAAAUAUCACUGUUAUUUUUGGAGUAAUUCAGUAUAGGUUCGUUUAAAAGAGAUUUUUAUAACUUCAGACAUGCAUCAGUAGGAAUGGAAUUCUCGGGUGCCAA	3.2
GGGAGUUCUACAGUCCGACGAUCGUGCCGAGGCAUGAAAGGCUAGUAUGAGCGAGAAAAGGAGAGCGCGUGCAGAGACUUGGUGGUGGAAAAUGGAUAUUUUUUAACUUGGAGAGAUGUGUCACUCAAUCCUGUGGAAUUCUCGGGUGCCAA	2.15
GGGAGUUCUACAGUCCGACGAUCAUUCUGAACCCCUCAGGUUCUCUGAAAGGGCACAGACCAUGGGCGUGAACAUUGUGCCGUACCUGAGAUGGUCUGUGGACUGCUGCUUCAGACACACGAGUCCUCGGAACUGGAAUUCUCGGGUGCCAA	0.254

Set 5
Target: CCNE1, cyclin fold, Cln2 fusion (human)
Technique: yeast growth competition, sequencing
Matrix: yeast
Setting: strong parent motif
Relative to: not given
Reading: higher = stronger binding
Starting sequence: PKN2 docking peptide (human); VSAVRKLDFSDTM
Change	normalised enrichment score
T12M	5.51
S10W	3.86
T12W	5.72
F9M	1.15
V4S	2.57
V4W	1
L7N	0.0967
L7C	-0.0903
S10D	5.91
S2N	5.49
T12P	5.45
F9W	2.41
T12V	5.26
L7R	-0.0735
K6D	0.354
D11K	4.32
S10E	5.85
K6M	4.09
D8M	3.81
L7W	0.00808
K6F	3.45
S10G	5.73
A3D	0.0429
D8T	5.05
V4M	3.59

Set 6
Target: Sal-like protein 4, full length isoform B (SALL4, Homo sapiens, UniProt Q9UJQ4-2, residues 1-616)
Technique: universal PBM
Molecule type: double-stranded DNA, one strand shown
Matrix: in vitro
Tested at: not given
Setting: 8-mer, flanks averaged, mean of replicates
Reading: higher = stronger binding
Construct (chain): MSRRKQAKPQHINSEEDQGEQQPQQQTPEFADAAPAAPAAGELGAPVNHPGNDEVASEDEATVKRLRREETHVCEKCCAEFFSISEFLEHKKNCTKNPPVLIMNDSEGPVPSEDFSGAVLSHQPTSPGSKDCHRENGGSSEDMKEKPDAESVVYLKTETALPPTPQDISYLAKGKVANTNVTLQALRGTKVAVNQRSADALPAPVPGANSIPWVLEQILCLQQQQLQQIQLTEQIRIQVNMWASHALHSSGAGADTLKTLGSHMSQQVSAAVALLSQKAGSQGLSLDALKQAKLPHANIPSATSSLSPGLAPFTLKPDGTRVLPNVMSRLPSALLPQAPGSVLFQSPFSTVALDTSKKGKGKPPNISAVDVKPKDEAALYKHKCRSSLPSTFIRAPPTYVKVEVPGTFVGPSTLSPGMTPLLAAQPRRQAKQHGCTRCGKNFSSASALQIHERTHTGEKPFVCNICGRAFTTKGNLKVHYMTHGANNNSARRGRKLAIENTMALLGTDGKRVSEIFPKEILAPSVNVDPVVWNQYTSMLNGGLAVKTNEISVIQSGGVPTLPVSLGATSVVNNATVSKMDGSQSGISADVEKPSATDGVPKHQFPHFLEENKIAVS
Oligonucleotide	E-score
AGATCTCC	-0.218
CGTGACAC	-0.00847
AAGAAAAG	0.11
AATGCATC	0.171
CAAGAAGG	-0.0954
ACTTAAAC	0.0887
ACCGCCAA	-0.159
TCAGGCCA	-0.171
AACAACTC	-0.0199
TCCAGCGA	-0.0719
CGGCGGGA	-0.431
AGGGTTCC	-0.169
CCTCCCAC	-0.119
TGGTTGAA	-0.0695
GATGGTGC	-0.21
AGGGCCCG	-0.276
CCCCCACG	-0.125
AACTCCAA	-0.0328
CATGATCC	-0.096
CGAATAAC	0.0691
ATGGCCGA	-0.145

Set 7
Target: ABI1, truncated, D143A, DHFR fusion (Arabidopsis thaliana)
Technique: DHFR PCA, deep sequencing
Matrix: yeast
Setting: methotrexate growth selection, single substitutions
Together with: (+)-ABA 0 µM
Relative to: wild-type fitted maximum
Reading: higher = stronger binding
Starting sequence: PYL1, truncated, DHFR fusion (Arabidopsis thaliana); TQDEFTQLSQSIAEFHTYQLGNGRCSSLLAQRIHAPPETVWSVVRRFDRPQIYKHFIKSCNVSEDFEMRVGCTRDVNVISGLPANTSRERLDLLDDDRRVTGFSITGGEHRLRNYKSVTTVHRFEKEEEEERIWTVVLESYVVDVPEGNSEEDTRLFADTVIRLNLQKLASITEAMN; partner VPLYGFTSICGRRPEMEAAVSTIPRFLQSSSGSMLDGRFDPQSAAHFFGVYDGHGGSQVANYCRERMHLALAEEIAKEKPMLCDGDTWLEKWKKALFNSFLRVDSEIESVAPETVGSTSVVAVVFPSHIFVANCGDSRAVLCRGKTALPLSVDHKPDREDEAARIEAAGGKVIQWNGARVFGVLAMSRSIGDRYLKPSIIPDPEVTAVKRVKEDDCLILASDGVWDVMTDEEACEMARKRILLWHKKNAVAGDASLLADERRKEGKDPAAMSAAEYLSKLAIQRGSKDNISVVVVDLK
Change	relative binding score [%]
S171V	15.9
R24H	8.91
A170M	-3.87
T39P	1.67
D96M	-3.82
F47L	2.28
H110P	67.1
G71F	6.38
C60E	1.58

Other studies, line by line
Molecule	target	test	system	setting	scale	measurement	result
PhoQ, residues 284 288 289 292 302 303 SSTLSG	PhoP, residues 12 14 15 18 19 LQHIR (Escherichia coli, UniProt P23836)	Sort-seq, measured: YFP reporter	E. coli	PhoQ-PhoP variant library, together with: 10 µM Mg2+	relative to: high Mg2+ state, higher = stronger signaling	fold induction	15
